Results of several laboratories.
Compare with care: the assays were run in different laboratories. Values joined by “and” are separate records of one study, mostly repeats; a detail may differ. ± gives the spread as reported. Values after ≈ are worked out from the molar mass of the structure shown.
Sequence of UniProt P50750 (whole entry, looked up): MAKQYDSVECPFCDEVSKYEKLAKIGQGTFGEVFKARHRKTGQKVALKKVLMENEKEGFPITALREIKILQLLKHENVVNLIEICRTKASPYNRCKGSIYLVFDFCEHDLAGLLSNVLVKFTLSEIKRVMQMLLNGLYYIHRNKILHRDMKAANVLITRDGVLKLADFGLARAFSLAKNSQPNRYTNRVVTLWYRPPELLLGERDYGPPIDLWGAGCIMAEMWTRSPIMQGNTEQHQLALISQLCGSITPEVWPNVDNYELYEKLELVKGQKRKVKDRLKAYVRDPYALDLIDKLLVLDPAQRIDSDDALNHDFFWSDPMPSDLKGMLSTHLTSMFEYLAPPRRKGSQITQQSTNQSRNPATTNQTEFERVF

Compound | tested on | assay | system | setting | scale | endpoint | value
COc1ccc(Nc2cc(C(=O)NCCCN3CCN(c4ccccc4F)CC3)c3ccccc3n2)c(OC)c1 | Vero-E6 | CellTiter-Glo ATP |  | 72 h, second round 5-point | baseline: DMSO 0%, hyamine -100%, more negative, more toxic | maximum response | -29.6%
COC1=C2C[C@@H](C)C[C@H](OC)[C@H](O)[C@@H](C)/C=C(\C)[C@H](OC(N)=O)[C@@H](OC)/C=C\C=C(/C)C(=O)NC(=CC1=O)C2=O | human coronavirus OC43 | virus-induced cell killing | MRC-5 | screen |  | maximum inhibition | 11.7%
CC(C)(C)NCCc1c[nH]c2cccc(O)c12.CC(C)(C)NCCc1c[nH]c2cccc(O)c12.O=C(O)/C=C/C(=O)O |  |  | C57BL/6J mice | subcutaneous, 0.03 mg/kg | baseline: pre-session baseline | body temperature change | 0 ± 0.1 °C
Cn1cnc2c(F)c(Nc3ccc(Br)cc3Cl)c(C(=O)NOCCO)cc21 | human coronavirus OC43 | virus-induced cell killing | MRC-5 | maximum over 10 doses |  | maximum inhibition | 0%
C[C@H]1CN(c2n[nH]c3nc(N[C@H]4CC[C@H](NS(=O)(=O)CCC(F)(F)F)CC4)ncc23)CCO1 | CDK9 (Homo sapiens, UniProt P50750) | competitor, Kinobeads competition | HEK293, K562, placenta extract |  |  | Hill slope | 1
O=NN(CCCl)C(=O)NC1CCCCC1 | human coronavirus OC43 | virus-induced cell killing | MRC-5 | screen |  | maximum inhibition | 4.61%
C[C@]12CC[C@H]3[C@@H](CC=C4CC(O)CC[C@@]43CO)[C@@H]1CCC2O (stereo partly drawn) |  |  | GAN diet MASH rats | ip, 20 mg/kg, two weeks | baseline: GAN vehicle | plasma cholesterol level | decreased
Nc1ncnc2c1ncn2[C@@H]1O[C@@H]2COP(=O)(O)O[C@H]3[C@@H](O)[C@H](n4cnc5c(=O)[nH]cnc54)O[C@@H]3COP(=O)(O)O[C@H]2[C@H]1O | HFF-1 | RNA sequencing, item: Nicotinate metabolism |  | upregulated pathway | baseline: Zika virus alone | pathway fold enrichment | 8.88
CCCCC1(CCCC)CN(c2ccccc2)c2cc(SC)c(OCC(=O)N[C@@H](C(=O)NCC(=O)O)c3ccccc3)cc2S(=O)(=O)C1 |  | item: HDL cholesterol | human, serum | 15 mg once daily, day 1 |  | serum HDL-C | 45.4 mg/dL
COc1cc(CCC[P+](c2ccccc2)(c2ccccc2)c2ccccc2)c(OC)c2c1OCO2.[I-] | NCI/ADR-RES | SRB |  |  |  | Log10GI50 | -4.11 log M
CCCNCCc1c[nH]c2cccc(O)c12.CCCNCCc1c[nH]c2cccc(O)c12.O=C(O)/C=C/C(=O)O |  |  | C57BL/6J mice | subcutaneous, 30 mg/kg | baseline: pre-session baseline | body temperature change | -4.9 ± 0.4 °C
C#CCN(C)[C@H](C)Cc1ccccc1 |  | footprint test | MPTP-induced Parkinson's disease mouse model | 10 mg/kg |  | stride length | 6.81 cm and 6.65 cm and 6.59 cm and 6.42 cm and 6.45 cm and 5.4 cm and 7.74 cm
C[C@H]1O[C@@H](O[C@H]2CC[C@@]3(C)[C@@H](CC[C@]4(C)[C@@H]3C=C[C@]35OC[C@@]6(CCC(C)(C)C[C@H]63)[C@@H](O)C[C@]54C)[C@]2(C)CO)[C@H](O)[C@@H](O[C@@H]2O[C@H](CO)[C@@H](O)[C@H](O)[C@H]2O)[C@H]1O |  |  | mouse, chronic-plus-binge ethanol, AAV8-TBG-Null, liver | dose not given, high dose |  | NAD+/NADH ratio | 3.65 and 4.82 and 2.99 and 3.68
CN1CCN(S(=O)(=O)c2cc([N+](=O)[O-])ccc2N(CCOS(C)(=O)=O)CCOS(C)(=O)=O)CC1 |  |  | NSG mice, sample BE PDX | intraperitoneal, 25 mg/kg weekly x3 | baseline: vehicle | EFS delay (T-C) | > 359 days
O=C(O)/C=C/C(=O)O.Oc1cccc2[nH]cc(CCNC3CCCCC3)c12 |  |  | C57BL/6J mice | subcutaneous, 3 mg/kg | baseline: pre-session baseline | body temperature change | 0.2 ± 0.1 °C
CN(C)[C@@H]1C(O)=C(C(N)=O)C(=O)[C@@]2(O)C(O)=C3C(=O)c4c(O)cccc4[C@@](C)(O)[C@H]3C[C@@H]12 | Salmonella enterica |  |  | 20 h, pH 5.5 |  | MIC | 1 µg/mL (≈ 2.25 µM)
CCNCCc1c[nH]c2cccc(O)c12.CCNCCc1c[nH]c2cccc(O)c12.O=C(O)CCC(=O)O |  |  | C57BL/6J mice | subcutaneous, 0.1 mg/kg | baseline: pre-session | body temperature change | -0.5 ± 0.2 °C
O=C(NC1CCNCC1)c1[nH]ncc1NC(=O)c1c(Cl)cccc1Cl | human coronavirus OC43 | virus-induced cell killing | MRC-5 | maximum over 10 doses |  | maximum inhibition | 0%
CCCCCc1cc(O)c2c(c1)OC(C)(C)[C@@H]1CCC(C)=C[C@@H]21 | capacitated human sperm | CASA |  | 10 µM, 1 h |  | Progressive motility | decreased
CC(C)NCCc1c[nH]c2cccc(O)c12.O=C(O)/C=C/C(=O)O |  |  | C57BL/6J mice | subcutaneous, 30 mg/kg | baseline: pre-session baseline | body temperature change | -1.7 ± 0.2 °C
COc1c(CCC[P+](c2ccccc2)(c2ccccc2)c2ccccc2)cc2c(c1OC)OCO2.[I-] | COLO 205 | SRB |  |  |  | GI50 | -5.92 log M
OC(c1ccccc1)(c1ccccc1)C1CCNCC1 | THP-1 | pyroptotic LDH release |  | 2 µM, 40 min, added: LPS then nigericin |  | inhibition | 39.8%
Cc1nc(Nc2[nH]nc3c2CN(C(=O)N[C@H](CN(C)C)c2ccccc2)C3(C)C)c2sccc2n1 | human coronavirus OC43 | virus-induced cell killing | MRC-5 | maximum over 10 doses |  | maximum inhibition | 0%
CC[C@H](C)[C@@H]1NC(=O)[C@@H]2CCCN2C(=O)[C@H](CC(C)C)NC(=O)[C@H](CC(C)C)NC(=O)CNC(=O)[C@@H](NC(=O)[C@@H](NC(=O)[C@H](CC(=O)O)NC(=O)CNC(=O)[C@@H](NC(=O)[C@H](C)NC(=O)CNC(=O)[C@H](CCCCN)NC(=O)[C@H](CC(C)C)NC(=O)[C@H](CC(C)C)NC(=O)[C@H](CCCCN)NC(=O)CNC(=O)[C@@H](NC(=O)[C@@H](N)CC(C)C)C(C)C)C(C)C)C(C)C)CSSC[C@@H](C(=O)O)NC1=O |  | RNA-seq, item: Adamts5 | mouse, traumatic brain injury model, frontal cortex and hippocampus | dose not given | baseline: TBI alone | log2 fold change | -1.13
O=C([O-])[C@@]1(CCCCCCOc2ccc(Cl)cc2)CO1.[Na+] | human coronavirus OC43 | virus-induced cell killing | MRC-5 | screen |  | maximum inhibition | 4.87%
COc1ccc2c(Sc3ccc(Cl)cc3)c(C(=O)NCCCN3CCCCC3)[nH]c2c1 | Vero-E6 | CellTiter-Glo ATP |  | 72 h, retest 8-point duplicates | baseline: DMSO 0%, hyamine -100%, more negative, more toxic | maximum response | -1.68%
Nc1cccc2c1C(=O)N(C1CCC(=O)NC1=O)C2=O (stereo not drawn) | human coronavirus OC43 | virus-induced cell killing | MRC-5 | maximum over 10 doses |  | maximum inhibition | 1.08%
COc1cc(CCNC(C)c2ccccc2O)c(OC)cc1C#N.Cl (stereo not drawn) | 5-HT2C V102L mutant, human | Gq dissociation, BRET |  |  | baseline: wild-type 5-HT2C | fold gain in potency | 15 fold
COC(=O)Nc1nc2ccc(C(=O)c3cccs3)cc2[nH]1 | human coronavirus OC43 | virus-induced cell killing | MRC-5 | screen |  | maximum inhibition | 2.43%
CC(C)N(CCC(C(N)=O)(c1ccccc1)c1ccccn1)C(C)C (stereo not drawn) | Nedd8-cullin1 interaction | neddylation, AlphaScreen |  | 100 µM |  | inhibition | 22.4%
